Measurements pooled from the literature.
A part holds a random share of what one study measured.

Set 1 — technique: protein binding microarray; molecule type: double-stranded DNA, one strand shown; matrix: in vitro; tested at: not given; baseline: not given; direction: higher = stronger binding
Target: Histone acetyltransferase KAT6A, both winged helices, GST fusion (KAT6A, Homo sapiens, UniProt Q92794, residues 1-181)
Notes: 8-mer, flanks averaged, mean of 2 arrays, mostly near background
Residues (chain): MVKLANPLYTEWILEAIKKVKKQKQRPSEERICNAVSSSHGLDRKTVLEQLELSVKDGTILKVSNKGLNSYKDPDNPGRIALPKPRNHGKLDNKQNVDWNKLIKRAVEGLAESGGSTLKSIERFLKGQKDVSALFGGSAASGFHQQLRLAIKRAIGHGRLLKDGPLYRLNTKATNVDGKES
Oligonucleotide	E-score
CACGGTTA	0.156
AAATACGA	-0.117
ATTAGACC	0.0178
AAGCCAGC	-0.177
GGTTAAAA	0.0284
ACCCTAGA	-0.122
ACAGATAT	-0.0536
AGATGCTC	-0.0781
ACGAAACG	0.167
ACCGTAAC	0.2
GACTGAGC	-0.0212
AGTCAGCA	-0.0494
ATAACGAG	-0.162
ATGTCTCA	-0.112
CATGATAC	-0.073
CTCGGATA	0.07
CTTGTAGA	-0.0256
ATTGTCAA	-0.087
ACCATTAA	-0.0829
ATCTGCTG	-0.182
ATATCATC	0.0476
AGAATTAA	-0.153
AATCCTAC	-0.181
CTGAGCAG	-0.0611
TCATCGGA	0.0422

Set 2 — technique: RNA Bind-n-Seq; molecule type: RNA; matrix: in vitro; tested at: 200 nM; notes: whole 134-nt RNA, ends assumed; with: 150 mM KCl; baseline: input library; direction: higher = stronger binding
Target: Fragile X messenger ribonucleoprotein 1, C-terminal low-complexity region (Fmr1, Mus musculus, UniProt P35922)
Oligonucleotide	log2 enrichment
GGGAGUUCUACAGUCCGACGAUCCUGUGCUACACAUCGUAUGUACCGAAUCGGAAAAAAAGGGGAAAAAAAGGAAAAAAAGGGGAAAGUAUUAUGUUACGCCGUUCGGAUCUGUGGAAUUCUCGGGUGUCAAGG	-0.928
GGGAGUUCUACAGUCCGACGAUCAGUCCUGUGCUACACAUCGUAUGUACCGAAUCGGAAAAAGGUUUUUGGUUUUUUUGGAAAGUAUUAUGUUACGCCGUUCGGAUCUGCACUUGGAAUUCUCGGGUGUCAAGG	-1.32
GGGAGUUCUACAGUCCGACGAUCGUCCUGUGCUACACAUCGUAUGUACCGAAUCAAACCCAAAUUUUUUUAAAUUUUUAAAAAAGUAUUAUGUUACGCCGUUCGGAUCUGCACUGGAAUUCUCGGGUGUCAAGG	-0.204
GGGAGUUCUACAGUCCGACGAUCAGUCCUGUGCUACACAUCGUAUGUACCGAAUCGGGGAAAAGGGGAAAAGGAAAAGGGAAAGUAUUAUGUUACGCCGUUCGGAUCUGCACUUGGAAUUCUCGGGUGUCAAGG	0.0286
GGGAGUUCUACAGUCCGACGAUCCAAGUCCUGUGCUACACAUCGUAUGUACCGAAUCGGUUUGGUUUGGGGUUUGGGGAAAGUAUUAUGUUACGCCGUUCGGAUCUGCACUUCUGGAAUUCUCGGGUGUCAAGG	-0.025
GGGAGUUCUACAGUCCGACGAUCCCUCAAGUCCUGUGCUACACAUCGUAUGUACCGAAUCGGAAAGGAAAGGUGGAAAGUAUUAUGUUACGCCGUUCGGAUCUGCACUUCCAGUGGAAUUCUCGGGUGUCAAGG	0.0757
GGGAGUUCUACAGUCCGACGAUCUCCUGUGCUACACAUCGUAUGUACCGAAUCGGGGUUUUUGGGGUUUUUGGGUUUUUGGGAAAGUAUUAUGUUACGCCGUUCGGAUCUGCAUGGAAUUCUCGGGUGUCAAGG	0.527
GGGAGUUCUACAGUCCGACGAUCACCAUGCAGGUGGGCAUCUUUGGGAAGUGGGGCAAGGGGGGGAUAGGGAGGGGGGUAACACUUUGGGAACAGGUGGUCCCUGGUCGUUUCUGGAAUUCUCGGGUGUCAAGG	0.798
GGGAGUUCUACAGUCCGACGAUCAAGUCCUGUGCUACACAUCGUAUGUACCGAAUCGGGGUUUGGUUUGGGGUUUGGGGAAAGUAUUAUGUUACGCCGUUCGGAUCUGCACUUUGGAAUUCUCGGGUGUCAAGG	0.477
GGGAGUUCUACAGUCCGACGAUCUAACUUUAGAGGAGGAUCUGAUGGAUAUGGCAGUGGACGUGGAUUUGGGGAUGGCUAUUAUGGGUAUGGAGGAGGACCUGGAGGUGGCAAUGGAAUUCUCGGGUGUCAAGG	0.336
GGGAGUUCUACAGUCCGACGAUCAAGUCCUGUGCUACACAUCGUAUGUACCGAAUCGGGCCCGGGGCCCGGGCCCGGGGAAAGUAUUAUGUUACGCCGUUCGGAUCUGCACUUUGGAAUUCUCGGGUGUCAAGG	-1.61
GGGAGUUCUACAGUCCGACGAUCCUCAAGUCCUGUGCUACACAUCGUAUGUACCGAAUCGGGAGGGUGGGAAAGGGAAAGUAUUAUGUUACGCCGUUCGGAUCUGCACUUCCAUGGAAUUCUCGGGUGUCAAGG	1.31
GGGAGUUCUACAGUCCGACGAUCCAAGUCCUGUGCUACACAUCGUAUGUACCGAAUCGGGUGGGUUUUUGGGUUUGGGAAAGUAUUAUGUUACGCCGUUCGGAUCUGCACUUCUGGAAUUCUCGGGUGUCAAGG	0.721
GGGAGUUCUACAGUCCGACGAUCCAAGUCCUGUGCUACACAUCGUAUGUACCGAAUCGGAAAAAGGAAAAAGGUUUGGAAAGUAUUAUGUUACGCCGUUCGGAUCUGCACUUCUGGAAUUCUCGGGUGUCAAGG	-1.15

Set 3 — technique: aptamer microarray, sandwich; molecule type: DNA with 2'F-ANA; matrix: in vitro; tested at: 200 nM; with: Cy3 exosite-II aptamer, 400 nM; direction: higher = stronger binding; oligonucleotide: GGTTGGTGTGGTTGG
Target: Prothrombin, mature alpha-thrombin (F2, Homo sapiens, UniProt P00734)
Notes: whole 15-mer aptamer, many near background
Modification	mean fluorescence intensity [a.u.]
2'F-ANA at 2 3 5 6 8 10 14 15	126
2'F-ANA at 3 4 5 6 7 9 13 14	79.8
2'F-ANA at 4 6 7 9 15	235
2'F-ANA at 2 3 5 6 11 12 13	122
2'F-ANA at 1 7 10 14	60.3
2'F-ANA at 1 5 6 8 9 10 11 15	47.3
2'F-ANA at 1 4 7 10 11 13 14	60.6
2'F-ANA at 1 2 3 4 7 10 14 15	48.7
2'F-ANA at 3 4 5 6 7 8 9 10 14	47.3
2'F-ANA at 2 3 4 5 6 7 8 10 12	58.4
2'F-ANA at 2 3 4 8 9	709
2'F-ANA at 2 4 6 7 8 9 10 11 15	73.3
2'F-ANA at 1 4 6 7 10 12	67.9
2'F-ANA at 2 3 4 5 6 7 10 15	47.9
2'F-ANA at 2 3 9 11 13 14	396
2'F-ANA at 3 4 5 7 10 11 12 13	52.8
2'F-ANA at 1 6 7 13 14 15	67.8
2'F-ANA at 2 5 6 7 10 11 12 13 14	47.7
2'F-ANA at 2 3 4 5 6 9	89.7
2'F-ANA at 2 4 5 6 9 11 12 14	48.1
2'F-ANA at 4 5 6 7 10 12 13 15	51.2
2'F-ANA at 1 2 5 6 7 8 10 14	46.6
2'F-ANA at 6 9 10 14 15	108
2'F-ANA at 2 5 6 9 10 12 15	51.4
2'F-ANA at 1 2 4 6 7 8 9 10 11 12	58.3

Set 4 — technique: protein-binding microarray; molecule type: double-stranded DNA, one strand shown; matrix: in vitro; tested at: 250 nM; notes: 60-bp whole probe; with: salmon DNA 0.4 mg/ml; baseline: random background probes; direction: higher = stronger binding; constant ends, left off below: GCCTAGCAC … GTCTTGATTCGCTTGACGCTGCTG
Target: Interferon regulatory factor 7, full length, phosphomimetic (IRF7, Homo sapiens, UniProt Q92985, residues 1-503, S101K/S471D/S472D/S475D/S476D/S477D/S483D/S484D/S487D)
Construct (chain): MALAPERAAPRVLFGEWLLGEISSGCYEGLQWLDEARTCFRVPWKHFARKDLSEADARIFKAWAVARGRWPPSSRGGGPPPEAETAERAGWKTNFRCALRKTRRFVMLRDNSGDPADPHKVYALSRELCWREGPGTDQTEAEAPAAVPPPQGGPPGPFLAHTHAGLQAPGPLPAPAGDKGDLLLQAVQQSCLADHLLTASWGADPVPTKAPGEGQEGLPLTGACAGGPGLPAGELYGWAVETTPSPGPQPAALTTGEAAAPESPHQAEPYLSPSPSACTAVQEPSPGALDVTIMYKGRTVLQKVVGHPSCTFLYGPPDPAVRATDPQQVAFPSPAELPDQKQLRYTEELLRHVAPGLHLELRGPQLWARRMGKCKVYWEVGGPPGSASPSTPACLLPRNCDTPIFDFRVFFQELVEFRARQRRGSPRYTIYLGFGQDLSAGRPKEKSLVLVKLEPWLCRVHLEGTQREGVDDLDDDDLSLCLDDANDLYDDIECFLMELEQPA
Oligonucleotide	log fluorescence [z-score]
TTAGATTTCGGGTATCGGTTAGTGCTA	1.55
TGAGAACTGGGGACTGGATTAGTGCTA	-0.431
TTCTCTTTCATTGCTGCCCTGTGCTAG	1.03
TTATAACTGGGGTATCGATTAGTGCTA	0.338
AGGACCATCTCATATAAATAGGTGCTA	0.462
TTTACTTTCTACGTCTGATTGTGCTAG	1.2
TTAAGACTGGACTTTCGGTTAGTGCTA	0.675
TCAAAAATCTTTGTTGGAACTGTGCTA	-0.269
ATGTCTTCCCCTCTCATTCCGTGCTAG	1.37
GCTCTCTTCTGCTTCCTCAGGTGCTAG	1.26
GACGAAGTGGGGACTGGAGACGTGCTA	-0.798
TTAGATTTCAGTTACGATTAGTGCTAG	1.24
TTAGATGTCAGTCTCGATTAGTGCTAG	1.1
TCACCACTCCAGTTCTGACTGTGCTAG	-0.271
GAAGGACTGGACTATCGGGACGTGCTA	-0.943
TCAGTCCTGGCTTTGACACTGTGCTAG	-0.412
TTGGGTTTCGGGTATCGGTTAGTGCTA	6.69
GACGATCTCACACTGGAGACGTGCTAG	-0.285
TTAGGACTGCTACTGCTTTGGTGCTAG	-0.57
GACGATTTCGGGACCGGAGACGTGCTA	0.0336
TTAGATCTCAGACTGTATTAGTGCTAG	-0.0666
GTATGGATGTGTTTTAAATAGTGCTAG	-0.251
ATGTCTTCCCCTCTCTTTCCGTGCTAG	1.28
TTAAATATCAGTTTCGATTAGTGCTAG	9.61

Some of these lines once more (set 4):
Oligonucleotide	log fluorescence [z-score]
GAAGGACTGGACTATCGGGACGTGCTA	-0.943
TCAGTCCTGGCTTTGACACTGTGCTAG	-0.412
TTGGGTTTCGGGTATCGGTTAGTGCTA	6.69
GACGATCTCACACTGGAGACGTGCTAG	-0.285
TTAGGACTGCTACTGCTTTGGTGCTAG	-0.57
GACGATTTCGGGACCGGAGACGTGCTA	0.0336
TTAGATCTCAGACTGTATTAGTGCTAG	-0.0666
